Measured values of several laboratories.
Parts stem from different laboratories: compare values within a part only.
UniProt P11802, sequence (whole entry, looked up): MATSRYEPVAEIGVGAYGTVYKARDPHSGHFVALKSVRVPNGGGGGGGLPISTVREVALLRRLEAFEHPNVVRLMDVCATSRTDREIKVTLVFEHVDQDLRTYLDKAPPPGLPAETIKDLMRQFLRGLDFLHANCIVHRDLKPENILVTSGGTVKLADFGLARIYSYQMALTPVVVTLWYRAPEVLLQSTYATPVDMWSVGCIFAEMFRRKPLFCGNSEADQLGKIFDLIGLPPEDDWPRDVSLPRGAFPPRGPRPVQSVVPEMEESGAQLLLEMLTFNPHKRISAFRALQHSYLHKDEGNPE
UniProt P45984, sequence (whole entry, looked up): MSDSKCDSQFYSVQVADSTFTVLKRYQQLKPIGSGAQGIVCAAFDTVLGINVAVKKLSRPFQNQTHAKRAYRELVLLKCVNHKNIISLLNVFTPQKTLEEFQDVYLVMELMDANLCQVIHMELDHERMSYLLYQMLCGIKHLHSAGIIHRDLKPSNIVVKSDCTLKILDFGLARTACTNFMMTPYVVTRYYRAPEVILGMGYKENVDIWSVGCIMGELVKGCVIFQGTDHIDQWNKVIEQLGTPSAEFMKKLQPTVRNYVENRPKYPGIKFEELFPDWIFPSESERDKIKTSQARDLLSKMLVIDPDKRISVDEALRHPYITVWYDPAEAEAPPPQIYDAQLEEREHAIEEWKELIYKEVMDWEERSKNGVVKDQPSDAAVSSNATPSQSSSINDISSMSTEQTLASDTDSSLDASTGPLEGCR
UniProt Q15418, sequence (whole entry, looked up): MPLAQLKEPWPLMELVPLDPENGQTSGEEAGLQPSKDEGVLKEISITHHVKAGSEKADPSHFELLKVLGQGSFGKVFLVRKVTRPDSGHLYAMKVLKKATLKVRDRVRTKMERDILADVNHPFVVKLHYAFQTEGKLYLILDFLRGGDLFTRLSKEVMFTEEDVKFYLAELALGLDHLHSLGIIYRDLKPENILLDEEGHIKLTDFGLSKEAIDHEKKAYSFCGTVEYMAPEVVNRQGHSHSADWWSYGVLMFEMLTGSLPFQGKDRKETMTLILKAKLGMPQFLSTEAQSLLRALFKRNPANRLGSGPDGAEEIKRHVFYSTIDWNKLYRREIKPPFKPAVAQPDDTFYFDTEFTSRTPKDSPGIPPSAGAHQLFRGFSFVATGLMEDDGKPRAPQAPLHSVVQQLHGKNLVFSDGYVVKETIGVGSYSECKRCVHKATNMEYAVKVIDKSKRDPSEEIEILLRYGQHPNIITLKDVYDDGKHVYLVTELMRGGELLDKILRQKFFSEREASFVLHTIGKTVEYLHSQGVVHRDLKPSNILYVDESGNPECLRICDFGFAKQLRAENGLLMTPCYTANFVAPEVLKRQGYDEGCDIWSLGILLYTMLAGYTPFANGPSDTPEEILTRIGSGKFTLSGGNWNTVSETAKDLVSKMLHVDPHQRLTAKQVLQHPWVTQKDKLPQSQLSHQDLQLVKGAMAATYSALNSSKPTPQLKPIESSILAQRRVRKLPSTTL
UniProt P53355, sequence (whole entry, looked up): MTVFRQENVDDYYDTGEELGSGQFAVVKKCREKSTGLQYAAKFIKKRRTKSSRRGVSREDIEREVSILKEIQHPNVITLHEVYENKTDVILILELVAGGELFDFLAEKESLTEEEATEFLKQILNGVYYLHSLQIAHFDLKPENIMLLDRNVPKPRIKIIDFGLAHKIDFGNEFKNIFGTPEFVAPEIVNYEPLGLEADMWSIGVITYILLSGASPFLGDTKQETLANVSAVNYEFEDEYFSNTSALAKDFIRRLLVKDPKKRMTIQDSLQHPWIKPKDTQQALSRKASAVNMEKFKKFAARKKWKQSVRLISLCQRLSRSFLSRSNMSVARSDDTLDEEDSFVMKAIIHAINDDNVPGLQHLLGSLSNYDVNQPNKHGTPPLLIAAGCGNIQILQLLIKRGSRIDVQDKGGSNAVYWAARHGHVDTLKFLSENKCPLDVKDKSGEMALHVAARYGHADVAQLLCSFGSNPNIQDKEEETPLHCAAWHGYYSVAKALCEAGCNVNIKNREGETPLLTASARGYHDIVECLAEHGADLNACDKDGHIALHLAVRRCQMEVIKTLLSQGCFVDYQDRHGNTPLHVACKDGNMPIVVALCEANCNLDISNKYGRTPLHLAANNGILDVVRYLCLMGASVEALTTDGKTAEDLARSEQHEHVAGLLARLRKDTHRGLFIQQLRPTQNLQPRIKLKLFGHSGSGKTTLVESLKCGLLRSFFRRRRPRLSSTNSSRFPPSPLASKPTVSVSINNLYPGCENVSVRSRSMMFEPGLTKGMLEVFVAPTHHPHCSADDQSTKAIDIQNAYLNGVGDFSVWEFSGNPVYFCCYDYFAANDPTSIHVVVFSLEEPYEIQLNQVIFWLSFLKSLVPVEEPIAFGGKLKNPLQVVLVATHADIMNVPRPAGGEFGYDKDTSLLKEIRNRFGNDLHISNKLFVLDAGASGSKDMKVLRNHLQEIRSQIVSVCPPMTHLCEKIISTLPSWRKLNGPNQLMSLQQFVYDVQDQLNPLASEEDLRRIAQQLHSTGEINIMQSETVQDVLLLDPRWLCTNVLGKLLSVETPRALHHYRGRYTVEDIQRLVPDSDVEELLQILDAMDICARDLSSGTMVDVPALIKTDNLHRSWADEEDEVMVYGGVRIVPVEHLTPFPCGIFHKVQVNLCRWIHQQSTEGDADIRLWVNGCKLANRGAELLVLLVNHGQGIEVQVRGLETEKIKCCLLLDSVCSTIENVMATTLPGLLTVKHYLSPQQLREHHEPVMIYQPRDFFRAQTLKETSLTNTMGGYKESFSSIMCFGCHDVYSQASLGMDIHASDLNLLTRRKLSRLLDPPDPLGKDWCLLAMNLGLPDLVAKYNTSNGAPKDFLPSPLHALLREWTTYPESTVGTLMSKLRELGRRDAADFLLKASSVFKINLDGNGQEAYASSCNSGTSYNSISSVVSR
UniProt P36897, sequence (whole entry, looked up): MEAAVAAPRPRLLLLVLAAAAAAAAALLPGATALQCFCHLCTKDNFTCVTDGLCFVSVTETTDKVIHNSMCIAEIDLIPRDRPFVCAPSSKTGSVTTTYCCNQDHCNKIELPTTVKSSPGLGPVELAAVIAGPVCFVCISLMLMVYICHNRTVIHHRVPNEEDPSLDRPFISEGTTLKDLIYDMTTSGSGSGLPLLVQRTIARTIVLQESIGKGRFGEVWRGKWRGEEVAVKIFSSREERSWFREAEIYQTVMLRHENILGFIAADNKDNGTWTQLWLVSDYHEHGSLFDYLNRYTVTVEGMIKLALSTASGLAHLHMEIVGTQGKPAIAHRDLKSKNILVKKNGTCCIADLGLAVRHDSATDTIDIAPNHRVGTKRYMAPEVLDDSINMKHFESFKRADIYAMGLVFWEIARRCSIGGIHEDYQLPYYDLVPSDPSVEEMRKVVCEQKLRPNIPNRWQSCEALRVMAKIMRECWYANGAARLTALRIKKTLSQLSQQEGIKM
UniProt P53779, sequence (whole entry, looked up): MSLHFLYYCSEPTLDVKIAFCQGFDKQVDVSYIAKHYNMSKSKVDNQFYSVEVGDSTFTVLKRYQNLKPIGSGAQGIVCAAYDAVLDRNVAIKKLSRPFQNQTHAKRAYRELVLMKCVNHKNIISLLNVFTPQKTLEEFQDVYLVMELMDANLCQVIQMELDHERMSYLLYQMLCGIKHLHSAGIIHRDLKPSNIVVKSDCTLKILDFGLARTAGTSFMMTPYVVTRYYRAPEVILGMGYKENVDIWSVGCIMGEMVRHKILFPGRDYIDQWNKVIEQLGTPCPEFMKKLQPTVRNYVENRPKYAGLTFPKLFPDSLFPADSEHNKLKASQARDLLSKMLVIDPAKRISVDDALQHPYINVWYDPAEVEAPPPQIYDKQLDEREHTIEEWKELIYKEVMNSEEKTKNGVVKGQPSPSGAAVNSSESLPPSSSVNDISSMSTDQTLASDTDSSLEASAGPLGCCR
UniProt O14920, sequence (whole entry, looked up): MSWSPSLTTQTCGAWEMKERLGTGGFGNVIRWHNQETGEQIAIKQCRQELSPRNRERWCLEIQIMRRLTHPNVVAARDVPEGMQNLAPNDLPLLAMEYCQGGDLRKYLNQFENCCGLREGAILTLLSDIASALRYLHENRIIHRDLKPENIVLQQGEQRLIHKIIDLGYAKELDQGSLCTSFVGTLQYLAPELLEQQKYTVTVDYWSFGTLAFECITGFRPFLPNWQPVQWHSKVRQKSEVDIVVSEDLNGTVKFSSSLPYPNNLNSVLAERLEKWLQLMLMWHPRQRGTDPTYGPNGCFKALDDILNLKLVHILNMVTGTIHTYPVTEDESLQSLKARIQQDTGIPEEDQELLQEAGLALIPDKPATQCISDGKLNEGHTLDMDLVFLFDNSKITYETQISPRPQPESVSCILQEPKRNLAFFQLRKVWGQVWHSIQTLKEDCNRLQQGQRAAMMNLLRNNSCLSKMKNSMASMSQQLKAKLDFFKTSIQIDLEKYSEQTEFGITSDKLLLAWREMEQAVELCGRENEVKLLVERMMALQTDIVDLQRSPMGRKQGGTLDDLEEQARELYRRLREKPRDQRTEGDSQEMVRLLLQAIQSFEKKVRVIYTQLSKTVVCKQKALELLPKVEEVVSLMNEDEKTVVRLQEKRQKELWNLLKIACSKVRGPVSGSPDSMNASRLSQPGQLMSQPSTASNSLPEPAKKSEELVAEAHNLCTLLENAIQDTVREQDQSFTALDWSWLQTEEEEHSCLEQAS
UniProt O15264, sequence (whole entry, looked up): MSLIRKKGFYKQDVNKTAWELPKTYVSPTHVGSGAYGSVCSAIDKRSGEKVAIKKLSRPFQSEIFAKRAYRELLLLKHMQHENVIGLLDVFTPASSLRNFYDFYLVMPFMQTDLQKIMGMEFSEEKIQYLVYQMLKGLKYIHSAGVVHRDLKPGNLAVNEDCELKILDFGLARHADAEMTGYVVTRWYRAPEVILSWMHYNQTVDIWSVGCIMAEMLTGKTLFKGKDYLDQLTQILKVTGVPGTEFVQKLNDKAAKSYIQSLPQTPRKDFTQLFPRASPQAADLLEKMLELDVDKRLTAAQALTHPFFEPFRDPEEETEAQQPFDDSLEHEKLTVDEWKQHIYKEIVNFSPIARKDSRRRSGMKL

Set 1 — SMILES: O=C(O)/C=C/c1cc(Br)c(Br)c(Br)c1Br; read-out: enzyme activity; action: inhibitor; concentration: 0.5 µM; reference: control; endpoint: remaining activity
cGMP-dependent protein kinase 1, isoform beta (PRKG1, Homo sapiens, UniProt Q13976): 89%
TGF-beta receptor type-1 (TGFBR1, Homo sapiens, UniProt P36897): 90.8%
Cyclin-dependent kinase 5, with p25 (CDK5, Homo sapiens, UniProt Q00535): 84.1%
Serine/threonine-protein kinase Nek2 (NEK2, Homo sapiens, UniProt P51955): 92%
Calcium/calmodulin-dependent protein kinase type II subunit delta (CAMK2D, Homo sapiens, UniProt Q13557): 77.8%
TGF-beta receptor type-2 (TGFBR2, Homo sapiens, UniProt P37173): 85.7%
Mitogen-activated protein kinase 9 (MAPK9, Homo sapiens, UniProt P45984): 96.4%
Serine/threonine-protein kinase Chk2 (CHEK2, Homo sapiens, UniProt O96017): 77.5%
Inhibitor of nuclear factor kappa-B kinase subunit epsilon (IKBKE, Homo sapiens, UniProt Q14164): 96.8%
Serine/threonine-protein kinase OSR1 (OXSR1, Homo sapiens, UniProt O95747): 93.5%
Serine/threonine-protein kinase 10 (STK10, Homo sapiens, UniProt O94804): 85.8%
Tyrosine-protein kinase Lyn, isoform B (LYN, Homo sapiens, UniProt P07948): 102%
Calcium/calmodulin-dependent protein kinase kinase 2 (CAMKK2, Homo sapiens, UniProt Q96RR4): 79.6%
Death-associated protein kinase 1 (DAPK1, Homo sapiens, UniProt P53355): 73.7%
Death-associated protein kinase 2 (DAPK2, Homo sapiens, UniProt Q9UIK4): 104%
Inhibitor of nuclear factor kappa-B kinase subunit beta (IKBKB, Homo sapiens, UniProt O14920): 95.7%
Protein kinase C beta type, isoform beta-I (PRKCB, Homo sapiens, UniProt P05771): 95.5%
STE20/SPS1-related proline-alanine-rich protein kinase (STK39, Homo sapiens, UniProt Q9UEW8): 97.9%
G protein-coupled receptor kinase 3 (GRK3, Homo sapiens, UniProt P35626): 94.3%
Cyclin-dependent kinase 4, with cyclin D1 (CDK4, Homo sapiens, UniProt P11802): 89.3%
cAMP-dependent protein kinase catalytic subunit alpha (PRKACA, Homo sapiens, UniProt P17612): 98.4%

Set 2 — method: phase 2a trial; species: idiopathic pulmonary fibrosis patients
SMILES: CC(C)n1cnc(-c2ccc(F)cc2)c1-c1ncc(C(=O)Nc2ccc(N3CCN(C)CC3)cc2)[nH]1
Endpoint: patients with lower respiratory infection
60 mg once daily, grade 3: 0%
60 mg once daily, grade 4: 0%
all dose arms pooled, grade 5: 0%
30 mg once daily, grade 1: 0%
30 mg once daily, grade 5: 0%

Set 3 — organism: Sarcocystis neurona; read-out: parasite growth; concentration: 10 µM; time: 96 h; notes: secondary screen; endpoint: inhibition
CC(C(O)c1ccc(O)cc1)N1CCC(Cc2ccccc2)CC1 (stereo not shown): -19.4%
Cc1ccc(NC(=O)c2ccc(CN3CCN(C)CC3)cc2)cc1Nc1nccc(-c2cccnc2)n1: -48.1%
Oc1ncnc2[nH]ncc12: -25%
CN1CCC(=C2c3ccccc3CC(=O)c3sccc32)CC1: -41.9%
Cc1onc(-c2ccccc2)c1-c1ccc(S(N)(=O)=O)cc1: -21.9%
Cc1cc2c(s1)Nc1ccccc1N=C2N1CCN(C)CC1: -22.9%
CO[C@@]1(NC(=O)Cc2cccs2)C(=O)N2C(C(=O)O)=C(COC(N)=O)CS[C@@H]21: -17.8%
CC12CC3CC(C)(C1)CC(N)(C3)C2: -6.2%
CC/C(=C(\c1ccccc1)c1ccc(OCCN(C)C)cc1)c1ccccc1: -28%
CN(C)CCC(c1ccc(Cl)cc1)c1ccccn1 (stereo not shown): -12.6%

Set 4 — method: competition with immobilised ligand; concentration: 1 µM; endpoint: remaining binding
SMILES: CCc1ccccc1C(=O)Nc1n[nH]c2c(C)c(F)c(C3C(C#N)=C(C)N(C)C(C)=C3C#N)cc12
Mitogen-activated protein kinase kinase kinase 2 (MAP3K2, Homo sapiens, UniProt Q9Y2U5); cell-free assay: 100%
Proto-oncogene tyrosine-protein kinase receptor Ret (RET, Homo sapiens, UniProt P07949); cell-free assay: 65%
Cyclin-dependent kinase 4, with cyclin D1 (CDK4, Homo sapiens, UniProt P11802); cell-free assay: 98%
Serine/threonine-protein kinase 25 (STK25, Homo sapiens, UniProt O00506); cell-free assay: 80%
Mitogen-activated protein kinase 9 (MAPK9, Homo sapiens, UniProt P45984); cell-free assay: 67%
Non-receptor tyrosine-protein kinase TYK2, JH2 (TYK2, Homo sapiens, UniProt P29597); cell-free assay: 100%
Tyrosine-protein kinase ABL1, phosphorylated (ABL1, Homo sapiens, UniProt P00519, E255K); binding: 88%
Receptor tyrosine-protein kinase erbB-2 (ERBB2, Homo sapiens, UniProt P04626); cell-free assay: 71%
Tyrosine-protein kinase ABL1, phosphorylated (ABL1, Homo sapiens, UniProt P00519, T315I); cell-free assay: 72%
G protein-coupled receptor kinase 4 (GRK4, Homo sapiens, UniProt P32298); cell-free assay: 100%
Mitogen-activated protein kinase 13 (MAPK13, Homo sapiens, UniProt O15264); cell-free assay: 96%
Mitogen-activated protein kinase 10 (MAPK10, Homo sapiens, UniProt P53779); cell-free assay: 92%
Mitogen-activated protein kinase 14 (MAPK14, Homo sapiens, UniProt Q16539); cell-free assay: 100%
Ribosomal protein S6 kinase beta-1 (RPS6KB1, Homo sapiens, UniProt P23443); cell-free assay: 80%
Ephrin type-A receptor 6 (EPHA6, Homo sapiens, UniProt Q9UF33); cell-free assay: 57%
Ribosomal protein S6 kinase alpha-1, N-terminal kinase domain (RPS6KA1, Homo sapiens, UniProt Q15418); cell-free assay: 1.8%
Cyclin-dependent kinase 8 (CDK8, Homo sapiens, UniProt P49336); cell-free assay: 71%
Serine/threonine-protein kinase NIM1 (NIM1K, Homo sapiens, UniProt Q8IY84); cell-free assay: 100%
Dual specificity mitogen-activated protein kinase kinase 3 (MAP2K3, Homo sapiens, UniProt P46734); cell-free assay: 97%
Serine/threonine-protein kinase Nek9 (NEK9, Homo sapiens, UniProt Q8TD19); cell-free assay: 93%
Proto-oncogene tyrosine-protein kinase ROS (ROS1, Homo sapiens, UniProt P08922); cell-free assay: 98%
Ribosomal protein S6 kinase alpha-1, C-terminal kinase domain (RPS6KA1, Homo sapiens, UniProt Q15418); cell-free assay: 100%
Fibroblast growth factor receptor 3 (FGFR3, Homo sapiens, UniProt P22607, G697C); cell-free assay: 74%
Cyclin-dependent kinase 3 (CDK3, Homo sapiens, UniProt Q00526); cell-free assay: 88%
Activin receptor type-1 (ACVR1, Homo sapiens, UniProt Q04771); cell-free assay: 100%
